Assay results pooled from the literature.
Every numbered part comes from another study and shows a few of its results, in no order. Positions count from the first letter of the parent shown.
Sequence of UniProt P52333 (whole entry, looked up): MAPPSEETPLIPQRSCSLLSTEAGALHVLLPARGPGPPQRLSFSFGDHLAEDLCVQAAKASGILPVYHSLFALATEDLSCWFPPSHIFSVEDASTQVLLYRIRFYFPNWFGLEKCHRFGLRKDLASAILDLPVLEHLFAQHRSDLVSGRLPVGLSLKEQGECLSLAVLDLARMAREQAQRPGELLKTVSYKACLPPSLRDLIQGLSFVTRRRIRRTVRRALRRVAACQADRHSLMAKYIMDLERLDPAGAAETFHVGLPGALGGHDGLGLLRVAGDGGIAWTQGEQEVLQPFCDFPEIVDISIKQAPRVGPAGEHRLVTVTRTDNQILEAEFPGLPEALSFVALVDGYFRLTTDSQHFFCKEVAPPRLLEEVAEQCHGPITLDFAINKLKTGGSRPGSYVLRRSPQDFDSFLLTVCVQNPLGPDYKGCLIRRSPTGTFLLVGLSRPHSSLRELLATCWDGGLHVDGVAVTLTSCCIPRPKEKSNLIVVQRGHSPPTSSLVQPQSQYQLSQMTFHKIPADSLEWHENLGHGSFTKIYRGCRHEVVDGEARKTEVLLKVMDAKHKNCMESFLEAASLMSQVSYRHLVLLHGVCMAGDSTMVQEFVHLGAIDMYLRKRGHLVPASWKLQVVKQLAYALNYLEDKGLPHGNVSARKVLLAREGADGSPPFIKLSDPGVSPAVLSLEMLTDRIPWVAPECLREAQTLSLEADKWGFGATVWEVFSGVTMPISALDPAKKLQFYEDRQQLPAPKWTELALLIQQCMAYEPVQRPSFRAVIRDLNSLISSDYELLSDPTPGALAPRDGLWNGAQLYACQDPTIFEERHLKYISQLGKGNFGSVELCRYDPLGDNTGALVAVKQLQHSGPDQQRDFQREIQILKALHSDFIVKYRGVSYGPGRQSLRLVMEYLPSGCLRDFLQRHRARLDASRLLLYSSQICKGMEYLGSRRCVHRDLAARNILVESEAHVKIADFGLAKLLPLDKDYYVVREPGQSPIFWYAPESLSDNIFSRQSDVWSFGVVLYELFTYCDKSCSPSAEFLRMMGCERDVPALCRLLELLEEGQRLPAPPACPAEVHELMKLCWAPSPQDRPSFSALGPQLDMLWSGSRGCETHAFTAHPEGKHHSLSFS

Study 1
Target: CCND2, cyclin fold, Cln2 fusion (human)
Method: yeast growth competition, sequencing
Sample: yeast
Notes: weak parent motif
Relative to: not given
Direction: higher = stronger binding
Starting sequence: viral docking peptide; TSVRRALFTGGSD; partner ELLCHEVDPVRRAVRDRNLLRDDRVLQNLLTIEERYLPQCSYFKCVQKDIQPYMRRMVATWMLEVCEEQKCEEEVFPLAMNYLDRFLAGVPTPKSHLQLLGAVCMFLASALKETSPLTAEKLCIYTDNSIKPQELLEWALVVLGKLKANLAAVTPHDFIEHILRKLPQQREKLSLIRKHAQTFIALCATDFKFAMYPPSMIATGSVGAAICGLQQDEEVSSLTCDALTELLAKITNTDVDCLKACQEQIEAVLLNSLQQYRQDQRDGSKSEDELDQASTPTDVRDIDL
| Substitution | normalised enrichment score |
| --- | --- |
| TSVRRAVFTGGSD [L7V] | 0.164 |
| TSVRRALFTTGSD [G10T] | -0.202 |
| TSVRRALWTGGSD [F8W] | -0.172 |
| TSVRRALFTKGSD [G10K] | -0.483 |
| TSVRRALFMGGSD [T9M] | -0.0839 |
| TSVRRAYFTGGSD [L7Y] | 0.697 |
| TSVRRALFTGGDD [S12D] | 0.11 |
| TSVHRALFTGGSD [R4H] | -0.121 |

Study 2
Target: tungstate, free oxyanion
Method: microfluidic competitive inhibition
Sample: in vitro, cell-free expressed
Concentration: not given
Notes: derived from inhibition constants, unchanged parent 2230 nM
Direction: lower = stronger binding
Starting sequence: PafA, mature enzyme, eGFP fusion (Elizabethkingia meningoseptica, UniProt Q9KJX5); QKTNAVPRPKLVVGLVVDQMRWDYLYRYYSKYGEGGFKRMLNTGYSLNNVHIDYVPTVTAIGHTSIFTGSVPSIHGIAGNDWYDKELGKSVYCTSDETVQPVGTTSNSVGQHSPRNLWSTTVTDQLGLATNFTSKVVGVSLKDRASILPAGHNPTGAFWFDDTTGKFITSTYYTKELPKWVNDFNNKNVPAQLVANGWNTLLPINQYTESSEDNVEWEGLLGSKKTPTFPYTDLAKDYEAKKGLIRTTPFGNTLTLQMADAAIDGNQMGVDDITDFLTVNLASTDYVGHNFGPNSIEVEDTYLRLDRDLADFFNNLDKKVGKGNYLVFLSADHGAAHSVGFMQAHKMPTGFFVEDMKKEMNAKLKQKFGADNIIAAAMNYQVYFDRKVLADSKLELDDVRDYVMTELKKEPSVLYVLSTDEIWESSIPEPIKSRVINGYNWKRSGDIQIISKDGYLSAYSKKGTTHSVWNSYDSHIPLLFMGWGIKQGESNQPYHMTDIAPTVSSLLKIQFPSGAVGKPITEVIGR
| Substitution | oxyanion analog dissociation constant |
| --- | --- |
| M258V | 3.02 µM |
| F167G | 1.59 µM |
| Y286V | 4.9 µM |
| E395V | 2.89 µM |
| A235V | 2.09 µM |
| K85G | 2.43 µM |
| E489V | 2.27 µM |
| Y231G | 557 nM |

Study 3
Target: UDP-N-acetylglucosamine--peptide N-acetylglucosaminyltransferase 110 kDa subunit (OGT, Homo sapiens, UniProt O15294)
Read-out: binding
Method: phage display NGS
Form: peptide
Concentration: concentration not given
Notes: panning round 2
Relative to: input library
Construct (O15294 1-1046): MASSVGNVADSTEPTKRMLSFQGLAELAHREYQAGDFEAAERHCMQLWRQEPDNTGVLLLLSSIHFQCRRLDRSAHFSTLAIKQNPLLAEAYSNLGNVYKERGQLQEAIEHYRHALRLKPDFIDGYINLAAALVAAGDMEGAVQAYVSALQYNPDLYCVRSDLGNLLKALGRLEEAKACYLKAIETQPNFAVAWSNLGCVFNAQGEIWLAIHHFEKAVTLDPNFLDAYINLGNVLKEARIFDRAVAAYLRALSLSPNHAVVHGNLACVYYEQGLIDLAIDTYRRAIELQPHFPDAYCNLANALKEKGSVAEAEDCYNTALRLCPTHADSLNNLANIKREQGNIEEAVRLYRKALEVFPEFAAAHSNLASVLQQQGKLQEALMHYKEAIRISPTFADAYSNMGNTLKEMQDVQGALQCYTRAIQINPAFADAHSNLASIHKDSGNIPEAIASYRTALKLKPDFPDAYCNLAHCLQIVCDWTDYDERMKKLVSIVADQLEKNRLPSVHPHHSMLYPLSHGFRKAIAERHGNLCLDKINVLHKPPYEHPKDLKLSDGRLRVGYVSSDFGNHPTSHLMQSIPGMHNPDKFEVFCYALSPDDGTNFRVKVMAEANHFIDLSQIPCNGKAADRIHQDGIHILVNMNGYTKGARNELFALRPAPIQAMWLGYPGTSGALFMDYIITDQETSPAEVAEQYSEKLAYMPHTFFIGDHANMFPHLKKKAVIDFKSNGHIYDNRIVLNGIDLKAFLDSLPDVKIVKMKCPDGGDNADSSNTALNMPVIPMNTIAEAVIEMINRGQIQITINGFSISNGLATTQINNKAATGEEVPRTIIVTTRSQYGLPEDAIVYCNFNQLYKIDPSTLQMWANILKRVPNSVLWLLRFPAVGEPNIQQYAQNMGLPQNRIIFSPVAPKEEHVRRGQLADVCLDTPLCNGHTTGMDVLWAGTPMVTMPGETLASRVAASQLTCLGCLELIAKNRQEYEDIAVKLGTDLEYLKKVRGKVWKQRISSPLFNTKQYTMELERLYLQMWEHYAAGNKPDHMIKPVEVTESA
| Sequence | enrichment fold change |
| --- | --- |
| YEYYQVGVHHHPLHL | 5.57 |
| HPWPYIMEHEHHHYK | 7.15 |
| MHHAFEGDHVWMHAG | 4.14 |
| TWHGSYKYRQHYAQN | 4.87 |
| ANTLDYTPFYTIEY | 4.39 |
| RHLSHVHNVHSSNSV | 4.07 |
| HDPYHYRYSPQHNSY | 6.21 |
| NTTAPQLVYPPMYQI | 8.78 |

Further values, each from its own experiment
| Structure (SMILES) | target | read-out | mode | endpoint | result |
| --- | --- | --- | --- | --- | --- |
| COC(=O)c1cc(N(C)C(=O)c2ccn3ncc(-c4ccc(C(=O)O)cc4)c3c2)ccc1Cl | Tyrosine-protein kinase JAK3 (JAK3, Homo sapiens, UniProt P52333) | enzyme activity | inhibitor | IC50 | 16.5 µM |

Excerpt of the above (further values, each from its own experiment):
| Structure (SMILES) | target | read-out | mode | endpoint | result |
| --- | --- | --- | --- | --- | --- |
| COC(=O)c1cc(N(C)C(=O)c2ccn3ncc(-c4ccc(C(=O)O)cc4)c3c2)ccc1Cl | Tyrosine-protein kinase JAK3 (JAK3, Homo sapiens, UniProt P52333) | enzyme activity | inhibitor | IC50 | 16.5 µM |
